Results collected from several papers.
A part holds a random share of what one study measured. Substitutions count along the parent as printed.

Study 1
Target: Histone acetyltransferase KAT6A, winged helix 2, GST fusion (KAT6A, Homo sapiens, UniProt Q92794, residues 85-181)
Method: protein binding microarray
Molecule type: double-stranded DNA, one strand shown
Sample: in vitro
Tested at: not given
Setting: 8-mer, flanks averaged, mean of 2 arrays, mostly near background
Baseline: not given
Reading: higher = stronger binding
Measurement: E-score
Construct (chain): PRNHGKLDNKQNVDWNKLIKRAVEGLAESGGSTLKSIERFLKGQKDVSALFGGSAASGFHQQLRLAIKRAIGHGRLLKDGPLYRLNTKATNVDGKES
CTGGCCAA: -0.0543
AGCACTAT: -0.152
CAAACTTG: 0.149
AGCCGTTA: 0.00665
ACTCATAA: -0.0772
GCAGGCAC: 0.0849
GTCACCAC: -0.0234
GGCGCTAC: 0.0135
AAGTCCAT: -0.286
CGCATTAG: 0.0622
AAAATACA: -0.0136
ATTCAATG: 0.0976

Study 2
Target: Sal-like protein 4, full length isoform A (SALL4, Homo sapiens, UniProt Q9UJQ4, residues 1-1053)
Sequence of UniProt Q9UJQ4 (whole entry, looked up): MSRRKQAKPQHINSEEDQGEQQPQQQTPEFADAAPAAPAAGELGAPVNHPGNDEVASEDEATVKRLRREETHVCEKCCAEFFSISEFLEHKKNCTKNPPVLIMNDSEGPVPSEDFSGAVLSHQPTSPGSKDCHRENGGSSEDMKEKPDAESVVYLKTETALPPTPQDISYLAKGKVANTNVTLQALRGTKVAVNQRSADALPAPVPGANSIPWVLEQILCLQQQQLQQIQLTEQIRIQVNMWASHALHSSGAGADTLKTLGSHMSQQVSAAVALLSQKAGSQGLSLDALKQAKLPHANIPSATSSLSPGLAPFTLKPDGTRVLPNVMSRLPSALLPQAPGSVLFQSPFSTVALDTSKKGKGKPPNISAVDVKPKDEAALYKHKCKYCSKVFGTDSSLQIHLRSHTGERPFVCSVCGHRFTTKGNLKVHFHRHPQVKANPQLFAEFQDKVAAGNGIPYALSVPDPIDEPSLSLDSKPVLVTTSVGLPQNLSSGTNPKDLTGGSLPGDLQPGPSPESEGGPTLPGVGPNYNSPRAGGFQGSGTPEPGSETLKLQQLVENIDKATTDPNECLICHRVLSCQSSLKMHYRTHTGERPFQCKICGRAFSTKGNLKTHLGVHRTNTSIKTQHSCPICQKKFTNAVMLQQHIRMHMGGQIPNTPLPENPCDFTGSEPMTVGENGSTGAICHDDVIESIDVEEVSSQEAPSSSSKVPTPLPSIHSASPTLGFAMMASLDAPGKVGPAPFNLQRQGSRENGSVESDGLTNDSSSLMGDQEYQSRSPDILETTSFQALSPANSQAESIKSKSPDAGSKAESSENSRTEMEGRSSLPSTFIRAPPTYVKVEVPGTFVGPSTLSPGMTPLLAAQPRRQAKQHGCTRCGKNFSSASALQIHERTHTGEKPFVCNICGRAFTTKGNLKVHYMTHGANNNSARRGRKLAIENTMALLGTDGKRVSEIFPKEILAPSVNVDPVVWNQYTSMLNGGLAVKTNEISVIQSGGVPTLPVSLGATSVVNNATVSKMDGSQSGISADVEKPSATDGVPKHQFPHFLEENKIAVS
Method: universal PBM
Molecule type: double-stranded DNA, one strand shown
Sample: in vitro
Tested at: 600 nM
Setting: 8-mer, flanks averaged, mean of replicates
Reading: higher = stronger binding
Measurement: E-score
ATGTTCCG: -0.0524
CAGTGCAG: -0.254
CCCATCAG: -0.289
GGTAGTAC: -0.0467
AGCGCCCG: -0.313
AGGTGTTC: -0.116
AAACAGAG: 0.0949
ACGCATAG: -0.0155
CACGAGGC: -0.0694
AACTCGCC: -0.124
GAGAGGAC: -0.117
AACCCTCA: -0.0622
ACTGACGA: -0.00061
CCGGCACG: -0.192
AACGGAAG: 0.00172
AGCATCAT: 0.186

Study 3
Target: CCNE2, cyclin fold, Cln2 fusion (human)
Method: yeast growth competition, sequencing
Sample: yeast
Setting: strong parent motif
Baseline: not given
Reading: higher = stronger binding
Measurement: normalised enrichment score
Starting sequence: WEE1 docking peptide (human); HKTFRKLRLFDTP
R8A: 0.382
F4N: 0.812
R5M: 1.1
H1M: 0.834
R8G: 0.867
D11A: 0.717
L9V: 0.891

Study 4
Substance: PhoQ, residues 284 288 289 292 302 303 NLSRDF
Method: Sort-seq
Item: YFP reporter
Sample: E. coli
Setting: PhoQ-PhoP variant library
With: 10 µM Mg2+
Baseline: high Mg2+ state
Reading: higher = stronger signaling
Measurement: fold induction
PhoP, residues 12 14 15 18 19 HHYTI (Escherichia coli, UniProt P23836): 3.26
PhoP, residues 12 14 15 18 19 AYFRS (Escherichia coli, UniProt P23836): 16
PhoP, residues 12 14 15 18 19 SFCSL (Escherichia coli, UniProt P23836): 16.8
